Results collected from several papers.
± marks the error that the study gave.
ADORA1: Adenosine receptor A1 (ADORA1, Homo sapiens, UniProt P30542)
SLC10A2: Ileal sodium/bile acid cotransporter (SLC10A2, Homo sapiens, UniProt Q12908)
ABO G235S/G268A/L266M/R176G: Histo-blood group ABO system transferase (ABO, Homo sapiens, UniProt P16442, G235S/G268A/L266M/R176G)
T1: DNA aptamer; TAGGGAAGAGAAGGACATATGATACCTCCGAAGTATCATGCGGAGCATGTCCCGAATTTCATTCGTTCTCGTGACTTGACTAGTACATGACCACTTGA
T2: RNA G4, bulged parallel (Homo sapiens); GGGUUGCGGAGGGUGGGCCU

SMILES	target	assay	system	conditions	how to read	quantity	value
CCCCOc1ccc(C(=O)OCC[N+]2(C)CC=CCC2)cc1 (centres unmarked)	CHRM3 (Homo sapiens, UniProt P20309)	antagonist, item: inositol phosphates	CHO	M3, with: carbachol	–	cooperativity factor	0.0013 ± 0.0002
CC(=O)N[C@@H](CC(=O)O)C(=O)N[C@@H](CCC(=O)O)C(=O)N[C@H](C(=O)N[C@@H](CC(=O)O)C(=O)Nc1ccc2c(C)cc(=O)oc2c1)C(C)C	Caspase-3 (CASP3, Homo sapiens, UniProt P42574)	substrate cleavage, substrate, fluorogenic AMC release	–	enzyme 0.25 activity units/µL	–	Vmax	941 ± 31.6 RFU/min
COc1ccc(-c2nc(CSc3nc(N)c(C#N)c(-c4ccccc4)c3C#N)cs2)cc1	ADORA1	cAMP, agonist	–	–	–	Emax	97%
COc1cc(C2CC(=O)Nc3nc(N)[nH]c(=O)c32)ccc1O (centres unmarked)	uncharacterized protein (Leishmania donovani, UniProt A0A3Q8IA09)	competitive ITC	–	with: aspartate 60 µM	–	ΔG	-7.17 kcal/mol
CC(=O)[C@H]1CC[C@H]2[C@@H]3CCC4=CC(=NOCC(=O)O)CC[C@]4(C)[C@H]3CC[C@]12C	T1, DNA aptamer	plate-ELAA	–	NaCl 100 mM	–	Kd	2.03 nM
C[C@H](CCC(=O)N[C@@H](CCC(=O)Nc1cncc(Br)c1)C(=O)O)[C@H]1CC[C@H]2[C@@H]3[C@H](O)C[C@@H]4C[C@H](O)CC[C@]4(C)[C@H]3CC[C@]12C	SLC10A2	transport, substrate, LC-MS/MS	ASBT-MDCK cells	–	–	Kt	33 µM
N=C(N)NCCC[C@H](NC(=O)[C@H](Cc1ccccc1)NC(=O)[C@@H](N)CO)C(=O)N[C@@H](CC(N)=O)C(N)=O	Neuropeptide S receptor (Mus musculus, UniProt Q8BZP8)	cAMP accumulation, agonist	HEK293T	mouse receptor, unit not given	reference: maximal assay window	maximal response	0.87
CNCC=C(C)C=CC=CC=CC1=C(C)CCCC1(C)C	Rhodopsin (RHO, Homo sapiens, UniProt P08100, T289P)	pharmacological chaperone, immunostaining, nonpermeabilized cells	661W	2.5 µM, 16 h	reference: untreated cells	cell surface expression	~4 fold
CC(C)CC(NC(=O)C(NC(=O)NC(C(=O)O)C(C)C)C1CCNC(=N)N1)C(=O)NCCCNC(C(=O)O)C(OC1OC(CN)C(O)C1O)C1OC(n2ccc(=O)[nH]c2=O)C(O)C1O (centres unmarked)	mraY (Aquifex aeolicus, UniProt O66465, K70A)	ITC	–	concentration not given, K70A mutant	–	binding stoichiometry	0.72 ± 0.05 sites
Cc1ccc(Oc2cc(C(=O)NC3CC(F)C3)nc3ccsc23)cn1 (centres unmarked)	CHRM1 (Homo sapiens, UniProt P11229)	positive allosteric modulator	–	concentration not given	–	PAM activity	inactive
Nc1ncnc2c1ncn2C1OC(COP(=O)(O)OP(=O)(O)OCC2OC(O)C(O)C2O)C(O)C1O (centres unmarked)	TRPM2 (Nematostella vectensis, UniProt A7T1N0, Y264A)	channel activation, agonist, inside-out patch clamp	–	Y264A, 2.5 µM PIP2, with: 125 µM Ca2+	reference: wild type	EC50 fold increase	> 1000 fold
CC(=O)N(Cc1ccccc1)[C@@H](C)C(=O)N(C)[C@@H](C)C(=O)N(Cc1c[nH]c2cc(Cl)ccc12)[C@@H](C)C(=O)N(C)[C@@H](C)C(=O)N(CCC(C)(C)C)[C@@H](C)C(=O)N1CCNCC1	E3 ubiquitin-protein ligase Mdm2, N-terminal domain 17-125 (MDM2, Homo sapiens, UniProt Q00987)	isothermal titration calorimetry	PBS	concentration not given, 25 °C	–	binding enthalpy	-9.99 kcal/mol
O=c1[nH]cnc2c(CN3C[C@@H](O)[C@H](O)C3)c[nH]c12	PNP (Homo sapiens, UniProt P00491)	–	–	first subunit	–	binding free energy	-13.5 ± 0.5 kcal/mol
CNc1ccccc1C(=O)O[C@H]1C[C@H](n2cnc3c(N)ncnc32)O[C@@H]1COP(=O)(O)OP(=O)(O)O	Unconventional myosin-Va (Gallus gallus, UniProt Q02440, D297C/G292C/I296C/S293C/V295G)	stopped-flow FRET	–	25 °C, with: MgCl2 10 mM	–	association rate constant	4.72e+06 ± 210000 M⁻¹ s⁻¹
O=C1Nc2ccc(Cl)cc2/C1=N/N=C/c1ccc(OCc2ccccc2)cc1	MAOB (Homo sapiens, UniProt P27338)	enzyme activity, inhibitor	–	10 µM	–	remaining activity	54.4%
COc1cc(-c2cnc3nc2NCCCNS(=O)(=O)c2cccc(c2)N3)ccc1F	EPHB3 (Homo sapiens, UniProt P54753)	differential scanning fluorimetry	–	10 µM	higher = stronger binding	thermal shift ΔTm	5.6 K
CCN(CC)c1ccc2cc(/C=C/c3ccc4cc(F)c(N5CCN(C)CC5)cc4[n+]3C)c(=O)oc2c1	T2, RNA G4, bulged parallel (Homo sapiens)	protein displacement, competitor, microscale thermophoresis	–	pH 7.5, 25 °C, KCl 150 mM, MgCl2 1 mM, with: nucleolin 80 nM	–	IC50	1050 nM
Cc1ccc(C(=O)Nc2ccc(CP(=O)(O)O)cc2CP(=O)(O)O)cc1NC(=O)c1cccc(NC(=O)Nc2cccc(C(=O)Nc3cc(C(=O)Nc4ccc(CP(=O)(O)O)cc4CP(=O)(O)O)ccc3C)c2)c1	F11 (Homo sapiens, UniProt P03951)	enzyme activity, inhibitor	–	10 µM, with: S-2366 substrate	–	Vmax	91.8 ± 3.4 mAU/min
NC(=O)C1CCNC(=O)C(CCCNC(=O)c2cnccn2)NC(=O)C(CC2CCCCC2)NC(=O)C(CC2CC2)NC(=O)C=CC(=O)N1 (centres unmarked)	MAPKAPK2 (Homo sapiens, UniProt P49137)	DNA-templated library selection	–	one selection round	–	enrichment factor	2
CCC(=C(c1ccc(O)cc1)c1ccc(OCCN(C)CCOCCOCCOCCOCCOCCOCCOCCOCCOCCOCCOCCN(C)CCOc2ccc(C(=C(CC)c3ccccc3)c3ccc(O)cc3)cc2)cc1)c1ccccc1 (mixture of isomers)	ESR2 (Homo sapiens, UniProt Q92731)	–	–	concentration not given, Z-Z:Z-E:E-E 1:2:1, with: [3H]-estradiol	reference: estradiol	relative binding affinity	9.75 ± 0.57%
C=CCCCCCCO[C@@H]1O[C@H](CO)[C@@H](O)[C@H](O[C@@H]2O[C@H](CO)[C@H](O)[C@H](O)[C@H]2O[C@@H]2O[C@@H](C)[C@@H](O)[C@@H](O)[C@@H]2O)[C@H]1NC(C)=O	ABO G235S/G268A/L266M/R176G	methyl-TROSY NMR titration lineshape analysis	–	apo enzyme	–	koff	1600 ± 200 s⁻¹

SMILES	target	assay	system	conditions	how to read	quantity	value
Cc1ccc(C(=O)Nc2ccc(CP(=O)(O)O)cc2CP(=O)(O)O)cc1NC(=O)c1cccc(NC(=O)Nc2cccc(C(=O)Nc3cc(C(=O)Nc4ccc(CP(=O)(O)O)cc4CP(=O)(O)O)ccc3C)c2)c1	Neutrophil elastase (ELANE, Homo sapiens, UniProt P08246)	enzyme activity, inhibitor, chromogenic substrate hydrolysis	–	pH 7.4, 37 °C, 100 mM NaCl, with: substrate S-1384	–	maximal inhibition	95.4 ± 5.9%
CCCCCCOc1ccc(C(=O)OCC[N+]2(C)CC=CCC2)cc1 (centres unmarked)	CHRM5 (Homo sapiens, UniProt P08912)	recovery of [3H]NMS binding after washing	membranes	100 µM	–	dissociation half-time	5.1 ± 0.4 h
CCCCCC(C)NCC(=O)O (centres unmarked)	Albumin (ALB, Homo sapiens, UniProt P02768)	binding, UV-vis absorption titration	–	concentration not given	–	hypochromicity	33.9%
C[C@H](CCC(=O)N[C@@H](CCC(=O)Nc1cncc(F)c1)C(=O)O)[C@H]1CC[C@H]2[C@@H]3[C@H](O)C[C@@H]4C[C@H](O)CC[C@]4(C)[C@H]3CC[C@]12C	SLC10A2	transport, substrate, LC-MS/MS	ASBT-MDCK cells	–	–	Kt	4.3 µM
Cc1ccc2c(c1)C(=O)N(C1CCC(=O)NC1=O)C2=O (centres unmarked)	Protein cereblon, in CRL4 complex (CRBN, Homo sapiens, UniProt Q96SW2)	CRL4-CRBN ubiquitination, inhibitor, immunoblotting	–	concentration not given	–	MEIS2 ubiquitination	inhibited
CCC(=O)N1CCC=C(c2cc3c(Nc4cc5ncsc5cc4F)ncnc3s2)C1	RIPK1 (Homo sapiens, UniProt Q13546)	enzyme activity	–	1 µM	reference: untreated	remaining activity	99 ± 1%
CCCn1c(=O)c2[nH]c(-c3ccc(OCC(=O)NCCNS(=O)(=O)c4cccc5c(N(C)C)cccc45)cc3)nc2n(CCC)c1=O	ADORA1	CRE reporter gene, inverse agonist	CHO-A1	concentration not given, with: forskolin	reference: forskolin alone	inverse agonist response	1.47 ± 0.08 fold increase
Nc1nc2ccccc2n1Cc1ccccc1	Beta-secretase 1, mature ectodomain (BACE1, Homo sapiens, UniProt P56817)	surface plasmon resonance	–	concentration not given	–	binding	binds
COc1ccc(C(C/C=C/CN2CCCC(C(=O)O)C2)(c2ccc(OC)cc2)c2ccc(OC)cc2)cc1 (centres unmarked)	Sodium- and chloride-dependent glycine transporter 1, isoform GlyT1c (SLC6A9, Homo sapiens, UniProt P48067)	inhibitor, MS binding competition	–	1.0 µM, pH 7.5, 22 °C, compound mixture deconvolution, with: Org24598 15 nM	–	remaining specific binding	49.8 ± 6.5%
Cc1ccc2ccc3ccc(C)nc3c2n1.Cc1ccc2ccc3ccc(C)nc3c2n1.O.[Cl-].[Cl-].[Cl-].[Yb+3]	Albumin (ALB, Bos taurus, UniProt P02769)	circular dichroism	–	0.7 µM	–	α-helical content	48.7%
CC(C)C[C@H](NC(=O)CNC(=O)[C@H](CC(C)C)NC(=O)[C@H](CCCCN)NC(=O)[C@H](CO)NC(=O)[C@H](C)NC(=O)[C@H](CCCNC(=N)N)NC(=O)[C@H](Cc1ccc(O)cc1)NC(=O)[C@H](CCCCN)NC(=O)[C@H](CCCCN)NC(=O)CNC(=O)[C@H](Cc1c[nH]c2ccccc12)NC(=O)[C@@H](N)Cc1c[nH]c2ccccc12)C(=O)N[C@@H](C)C(=O)N[C@@H](CCCNC(=N)N)C(=O)O	C3AR1 (Homo sapiens, UniProt Q16581)	β-arrestin 1/2 recruitment, agonist, NanoBiT	–	–	reference: C3a maximum	Emax	55 to 65%
O=C1c2ccc(O)cc2OC2c3cc(-c4coc5cc(O)ccc5c4=O)ccc3OC12c1ccc(O)cc1 (centres unmarked)	PRXC1A (Armoracia rusticana, UniProt P00433)	oxidation, substrate	–	–	–	Km	775 ± 21 µM
CCCCCCCCO[C@@H]1O[C@H](CO)[C@H](O)[C@H](O)[C@H]1O[C@@H]1O[C@@H](C)[C@@H](O)[C@@H](O)[C@@H]1O	ABO G235S/G268A/L266M/R176G	methyl-TROSY NMR titration lineshape	–	two-state binding model, with: acceptor binding, saturating UDP	–	kon	250000 M⁻¹ s⁻¹
Cc1ccc(C)c2sc(NC(=O)C3CCN(S(=O)(=O)c4ccc(F)cc4)CC3)nc12	N-acyl-phosphatidylethanolamine-hydrolyzing phospholipase D (Homo sapiens, UniProt Q6IQ20)	activator	HepG2	with: flame-NAPE substrate	reference: vehicle	Emax	1.6 fold
CCc1nc2cc3ccccc3cc2cc1C(=O)N1CCC[C@H]1C(=O)N[C@@H](CCC/C=C/CCC[C@H](NC(=O)[C@@H]1CCCN1C(=O)c1cc2cc3ccccc3cc2nc1CC)C(=O)N[C@@H](CCCCN)C(=O)NCCCN)C(=O)N[C@@H](CCCCN)C(=O)NCCCN	(CCUG)10 RNA	SPR	–	–	–	residence time	50 s
C#CCCCC[C@H](C)C[C@@H](C)C(=O)N(C)[C@H](C(=O)N(C)[C@@H](Cc1ccccc1)C(=O)N1CCC[C@H]1C(=O)N1CCC[C@H]1C(C)=O)C(C)C	BCL2 (Homo sapiens, UniProt P10415)	cellular thermal shift	DU-145	–	highest temperature with stabilization	stabilization temperature limit	≤ 46 °C
CCC(=C(c1ccc(Cl)cc1)c1ccc(OCCN(C)C)cc1)c1ccc(OC)cc1	Estrogen receptor (ESR1, Homo sapiens, UniProt P03372)	reporter gene, agonist, yeast estrogen screen	–	1 µM	reference: DMSO	fold activation	5.49 ± 0.71 fold
CC(C)C[C@H](NC(=O)[C@H](CC(=O)O)NC(=O)CNC(=O)[C@@H](N)CCCNC(=N)N)C(=O)N[C@@H](C)C(=O)N[C@H](C(=O)N[C@@H](CC(C)C)C(=O)NCCOCCOCCOCCOCCOCCOCCOCCOCCOCCOCCOCCOCCC(=O)N[C@@H](CSC1CC(=O)N(CCC(=O)NCCCC[C@H](NC(=O)CCN2C(=O)CC(SC[C@H](NC(=O)CCOCCOCCOCCOCCOCCOCCOCCOCCOCCOCCOCCOCCNC(=O)[C@H](CC(C)C)NC(=O)[C@@H](NC(=O)[C@H](C)NC(=O)[C@H](CC(C)C)NC(=O)[C@H](CC(=O)O)NC(=O)CNC(=O)[C@@H](N)CCCNC(=N)N)[C@@H](C)O)C(N)=O)C2=O)C(=O)NCCCC[C@H](NC(=O)[C@H](CCCCNC(=O)CCN2C(=O)CC(SC[C@H](NC(=O)CCOCCOCCOCCOCCOCCOCCOCCOCCOCCOCCOCCOCCNC(=O)[C@H](CC(C)C)NC(=O)[C@@H](NC(=O)[C@H](C)NC(=O)[C@H](CC(C)C)NC(=O)[C@H](CC(=O)O)NC(=O)CNC(=O)[C@@H](N)CCCNC(=N)N)[C@@H](C)O)C(N)=O)C2=O)NC(=O)CCN2C(=O)CC(SC[C@H](NC(=O)CCOCCOCCOCCOCCOCCOCCOCCOCCOCCOCCOCCOCCNC(=O)[C@H](CC(C)C)NC(=O)[C@@H](NC(=O)[C@H](C)NC(=O)[C@H](CC(C)C)NC(=O)[C@H](CC(=O)O)NC(=O)CNC(=O)[C@@H](N)CCCNC(=N)N)[C@@H](C)O)C(N)=O)C2=O)C(=O)NCCC(=O)O)C1=O)C(N)=O)[C@@H](C)O (some centres unmarked)	Integrin alpha-V/beta-6 (Homo sapiens, UniProt P06756+P18564)	H2009.1 phage uptake	–	1 nM	reference: compound over H2009.1 tetrameric 20-mer peptide	inhibition ratio	1.4 fold
CN(C)CCCCOc1ccc2cc(CN)ccc2c1	Primary amine oxidase, liver isozyme (Bos taurus, UniProt Q29437)	substrate, fluorescence	–	–	reference: benzylamine	relative kcat/Km	920
Cc1cc(C#CC2(O)CCCCC2)cc2c1cc(C(=O)O)n2-c1cccc(Cl)c1	Microphthalmia-associated transcription factor, residues 1-296 (Homo sapiens, UniProt O75030)	binding, isothermal titration calorimetry	–	25 °C	–	-TΔS	1.82 ± 0.932 kcal/mol
